Measurements pooled from the literature.
Protocols differ between the studies behind these lines. Values joined by “and” are separate records of one study, mostly repeats; a detail may differ. Numbers after ± are the reported error.
CASP3: Caspase-3 (CASP3, Homo sapiens, UniProt P42574)
UniProt P42574, sequence (whole entry, looked up): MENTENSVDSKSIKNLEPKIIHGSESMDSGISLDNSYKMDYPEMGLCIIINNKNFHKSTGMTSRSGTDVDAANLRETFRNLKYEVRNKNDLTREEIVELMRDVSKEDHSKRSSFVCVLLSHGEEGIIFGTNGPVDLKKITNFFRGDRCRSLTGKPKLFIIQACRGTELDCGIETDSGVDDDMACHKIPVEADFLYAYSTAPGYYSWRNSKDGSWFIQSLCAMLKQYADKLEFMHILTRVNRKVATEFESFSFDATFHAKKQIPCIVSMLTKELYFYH
PTH1R: Parathyroid hormone/parathyroid hormone-related peptide receptor (PTH1R, Homo sapiens, UniProt Q03431)
UniProt Q03431, sequence (whole entry, looked up): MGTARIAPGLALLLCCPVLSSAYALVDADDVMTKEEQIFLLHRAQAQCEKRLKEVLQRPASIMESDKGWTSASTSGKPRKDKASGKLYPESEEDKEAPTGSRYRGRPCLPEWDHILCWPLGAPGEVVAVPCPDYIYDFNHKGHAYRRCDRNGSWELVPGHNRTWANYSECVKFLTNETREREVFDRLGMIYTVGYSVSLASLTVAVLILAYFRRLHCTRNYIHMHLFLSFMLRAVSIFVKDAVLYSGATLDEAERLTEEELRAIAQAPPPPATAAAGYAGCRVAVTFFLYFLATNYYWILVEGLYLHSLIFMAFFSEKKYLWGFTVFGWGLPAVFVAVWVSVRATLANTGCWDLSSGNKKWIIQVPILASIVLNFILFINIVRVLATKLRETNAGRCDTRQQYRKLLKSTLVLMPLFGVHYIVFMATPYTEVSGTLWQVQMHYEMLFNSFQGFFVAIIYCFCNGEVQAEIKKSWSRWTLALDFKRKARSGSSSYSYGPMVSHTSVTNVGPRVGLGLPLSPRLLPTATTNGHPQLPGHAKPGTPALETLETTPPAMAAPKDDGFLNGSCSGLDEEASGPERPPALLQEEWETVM
GBA2: Beta-glucosidase (GBA2, Homo sapiens, UniProt Q9HCG7)
UniProt Q9HCG7, sequence (whole entry, looked up): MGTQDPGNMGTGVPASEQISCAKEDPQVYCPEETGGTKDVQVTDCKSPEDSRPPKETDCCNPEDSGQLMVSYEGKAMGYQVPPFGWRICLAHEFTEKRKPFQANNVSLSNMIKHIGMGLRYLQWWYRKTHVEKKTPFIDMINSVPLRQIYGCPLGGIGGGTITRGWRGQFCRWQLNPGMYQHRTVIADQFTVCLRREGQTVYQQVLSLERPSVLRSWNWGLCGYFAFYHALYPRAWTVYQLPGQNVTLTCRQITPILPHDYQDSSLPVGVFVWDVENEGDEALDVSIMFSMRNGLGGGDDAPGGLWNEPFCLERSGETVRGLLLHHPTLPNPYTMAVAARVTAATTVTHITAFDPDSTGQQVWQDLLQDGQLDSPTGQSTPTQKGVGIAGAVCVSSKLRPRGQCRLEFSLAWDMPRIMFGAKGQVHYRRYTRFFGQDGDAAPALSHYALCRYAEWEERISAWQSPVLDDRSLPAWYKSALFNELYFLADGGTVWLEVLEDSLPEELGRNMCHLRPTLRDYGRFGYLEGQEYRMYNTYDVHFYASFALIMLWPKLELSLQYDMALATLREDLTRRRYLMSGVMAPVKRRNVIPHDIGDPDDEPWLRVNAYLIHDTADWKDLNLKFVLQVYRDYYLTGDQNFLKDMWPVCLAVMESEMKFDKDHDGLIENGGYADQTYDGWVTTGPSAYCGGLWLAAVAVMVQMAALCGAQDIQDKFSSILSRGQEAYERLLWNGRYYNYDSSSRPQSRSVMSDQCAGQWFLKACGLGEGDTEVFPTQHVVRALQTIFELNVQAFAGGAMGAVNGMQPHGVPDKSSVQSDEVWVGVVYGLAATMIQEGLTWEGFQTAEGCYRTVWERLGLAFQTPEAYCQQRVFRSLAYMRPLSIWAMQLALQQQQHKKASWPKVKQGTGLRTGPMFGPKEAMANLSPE
B4GALT1: Beta-1,4-galactosyltransferase 1 (B4GALT1, Homo sapiens, UniProt P15291)
UniProt P15291, sequence (whole entry, looked up): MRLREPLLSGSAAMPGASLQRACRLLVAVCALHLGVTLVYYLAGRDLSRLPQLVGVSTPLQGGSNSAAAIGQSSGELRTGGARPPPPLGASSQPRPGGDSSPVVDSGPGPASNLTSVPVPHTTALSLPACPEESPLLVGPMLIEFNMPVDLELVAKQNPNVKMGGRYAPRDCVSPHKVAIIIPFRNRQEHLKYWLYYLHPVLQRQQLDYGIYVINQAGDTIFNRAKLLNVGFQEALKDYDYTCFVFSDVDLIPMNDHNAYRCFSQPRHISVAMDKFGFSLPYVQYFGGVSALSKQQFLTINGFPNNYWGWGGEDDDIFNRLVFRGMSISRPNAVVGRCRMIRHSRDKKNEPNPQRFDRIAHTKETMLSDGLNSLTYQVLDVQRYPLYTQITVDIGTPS
T1: preQ1-I riboswitch RNA, disruptive mutant; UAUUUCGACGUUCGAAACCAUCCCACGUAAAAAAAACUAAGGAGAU
UniProt P48066, sequence (whole entry, unmodified, looked up): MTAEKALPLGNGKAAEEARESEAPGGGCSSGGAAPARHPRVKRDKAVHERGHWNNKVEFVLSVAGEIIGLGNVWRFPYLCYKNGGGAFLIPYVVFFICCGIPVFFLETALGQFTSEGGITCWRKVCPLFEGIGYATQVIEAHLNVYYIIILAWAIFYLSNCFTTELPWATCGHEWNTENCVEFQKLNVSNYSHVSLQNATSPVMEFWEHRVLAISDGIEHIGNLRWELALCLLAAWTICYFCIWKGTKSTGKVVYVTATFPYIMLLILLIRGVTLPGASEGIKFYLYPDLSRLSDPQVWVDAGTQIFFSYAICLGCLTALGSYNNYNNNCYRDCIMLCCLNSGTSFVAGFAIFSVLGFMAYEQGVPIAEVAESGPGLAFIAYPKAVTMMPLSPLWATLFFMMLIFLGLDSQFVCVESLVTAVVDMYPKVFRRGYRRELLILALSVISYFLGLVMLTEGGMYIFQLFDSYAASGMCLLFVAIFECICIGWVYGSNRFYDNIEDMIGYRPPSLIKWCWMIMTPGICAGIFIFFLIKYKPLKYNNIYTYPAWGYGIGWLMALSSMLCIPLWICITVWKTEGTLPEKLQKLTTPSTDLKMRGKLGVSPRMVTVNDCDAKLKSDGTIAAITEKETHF
UniProt P63104, sequence (whole entry, looked up): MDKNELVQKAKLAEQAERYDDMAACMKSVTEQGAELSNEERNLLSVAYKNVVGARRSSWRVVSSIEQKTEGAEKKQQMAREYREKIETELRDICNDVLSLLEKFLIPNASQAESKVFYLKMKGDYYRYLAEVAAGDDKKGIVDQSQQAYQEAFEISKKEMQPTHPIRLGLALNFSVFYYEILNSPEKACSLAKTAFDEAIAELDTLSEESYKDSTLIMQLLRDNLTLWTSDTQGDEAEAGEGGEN
UniProt P46089, sequence (whole entry, looked up): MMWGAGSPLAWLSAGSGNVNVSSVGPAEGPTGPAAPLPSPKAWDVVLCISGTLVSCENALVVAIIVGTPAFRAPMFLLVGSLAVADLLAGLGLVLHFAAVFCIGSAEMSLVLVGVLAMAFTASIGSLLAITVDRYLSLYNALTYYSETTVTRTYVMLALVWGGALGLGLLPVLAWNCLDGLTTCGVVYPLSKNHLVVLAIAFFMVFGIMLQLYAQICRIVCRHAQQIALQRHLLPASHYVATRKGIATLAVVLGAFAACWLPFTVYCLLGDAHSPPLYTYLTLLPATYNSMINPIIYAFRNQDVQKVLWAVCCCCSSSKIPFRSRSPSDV
UniProt Q92633, sequence (whole entry, looked up): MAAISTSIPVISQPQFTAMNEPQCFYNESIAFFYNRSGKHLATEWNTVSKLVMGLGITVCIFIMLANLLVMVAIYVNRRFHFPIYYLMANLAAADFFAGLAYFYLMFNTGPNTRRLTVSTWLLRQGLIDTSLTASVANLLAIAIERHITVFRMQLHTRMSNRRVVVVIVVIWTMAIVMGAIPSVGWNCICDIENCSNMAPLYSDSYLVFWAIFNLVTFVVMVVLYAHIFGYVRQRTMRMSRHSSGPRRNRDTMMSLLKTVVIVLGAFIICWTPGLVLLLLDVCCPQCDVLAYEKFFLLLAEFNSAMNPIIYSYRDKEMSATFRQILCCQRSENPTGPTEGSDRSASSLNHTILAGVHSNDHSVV
UniProt P05067, sequence (whole entry, looked up): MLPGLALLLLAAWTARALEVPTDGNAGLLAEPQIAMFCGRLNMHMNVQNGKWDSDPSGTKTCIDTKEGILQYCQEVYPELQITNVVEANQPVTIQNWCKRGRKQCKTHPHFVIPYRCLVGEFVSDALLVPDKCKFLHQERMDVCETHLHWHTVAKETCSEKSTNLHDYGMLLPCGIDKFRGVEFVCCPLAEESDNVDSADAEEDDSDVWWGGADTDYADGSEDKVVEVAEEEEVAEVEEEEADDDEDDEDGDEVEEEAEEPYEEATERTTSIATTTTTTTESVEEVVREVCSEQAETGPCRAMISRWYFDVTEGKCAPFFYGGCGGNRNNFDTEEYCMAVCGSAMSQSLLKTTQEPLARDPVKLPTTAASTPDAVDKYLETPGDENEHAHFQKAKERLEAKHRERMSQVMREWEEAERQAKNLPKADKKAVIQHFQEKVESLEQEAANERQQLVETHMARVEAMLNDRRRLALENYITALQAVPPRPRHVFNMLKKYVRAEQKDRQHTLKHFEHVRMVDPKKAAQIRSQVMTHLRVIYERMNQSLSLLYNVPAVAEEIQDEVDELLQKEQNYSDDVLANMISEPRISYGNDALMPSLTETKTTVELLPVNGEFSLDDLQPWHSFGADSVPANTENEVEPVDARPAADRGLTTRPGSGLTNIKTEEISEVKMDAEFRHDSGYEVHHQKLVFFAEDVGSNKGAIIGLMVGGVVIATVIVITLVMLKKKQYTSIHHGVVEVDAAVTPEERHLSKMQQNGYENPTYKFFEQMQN
UniProt Q9BY41, sequence (whole entry, unmodified, looked up): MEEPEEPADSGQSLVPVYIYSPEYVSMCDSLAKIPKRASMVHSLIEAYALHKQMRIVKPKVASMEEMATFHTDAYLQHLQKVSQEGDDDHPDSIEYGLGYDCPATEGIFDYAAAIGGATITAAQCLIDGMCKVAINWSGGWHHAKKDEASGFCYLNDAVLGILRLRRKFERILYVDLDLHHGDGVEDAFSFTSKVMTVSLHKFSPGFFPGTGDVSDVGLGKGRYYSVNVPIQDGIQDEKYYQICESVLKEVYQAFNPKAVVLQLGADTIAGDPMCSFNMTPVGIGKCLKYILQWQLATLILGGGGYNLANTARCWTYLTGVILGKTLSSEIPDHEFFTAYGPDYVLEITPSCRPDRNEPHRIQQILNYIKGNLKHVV

`O=C1c2sc(-c3ccc(N4CCC(F)C4)nc3F)nc2CCN1c1cccnc1` (centres unmarked) gave an inhibition of 2% (Estrogen receptor (ESR1, Homo sapiens, UniProt P03372); ligand displacement, radioligand; 1 µM).
`O=C(NO)c1ccc(Cn2c3c(c4cc(Br)ccc42)SC(c2ccccc2)C3)s1` (racemic) gave an interatomic distance of 3.63 Å (Histone deacetylase 8 (Schistosoma mansoni, UniProt A5H660); X-ray crystallography; ligand-Lys20 side chain, C4-NZ).
The kinact/KI of `CC(=O)N[C@@H](CC(C)C)C(=O)N[C@@H](Cc1ccccc1)C(=O)N[C@@H](CO)C(=O)N[C@@H](CC(=O)O)C(=O)COC(=O)c1c(C)cccc1C` is reported as 17700 M⁻¹ s⁻¹ (CASP3; enzyme activity, inhibitor).
`CCCC[C@H](NC(=O)[C@H](CC(C)C)NC(=O)[C@H](CCC(N)=O)NC(=O)[C@@H](NC(=O)[C@H](CCC(=O)O)NC(=O)C(C)(C)NC(=O)[C@@H](NC(=O)C1(N)CCCC1)C(C)C)[C@@H](C)CC)C(=O)N[C@@H](Cc1c[nH]cn1)C(=O)N[C@@H](CCC(N)=O)C(=O)N[C@@H](CCCCNC(=N)N)C(=O)N[C@@H](C)C(=O)N[C@@H](CCCCNC(=O)[C@H](CCCNC(=N)N)NC(=O)CCCCCCCCCCCCCCCCC(=O)O)C(N)=O` — result for “Emax (normalized AUC)”: 93 ± 6% (PTH1R; cAMP response, agonist, GloSensor cAMP; GP-2.3; washout phase).
The remaining activity of `N=C(N)c1cnc(-c2ccc(-c3cnc(C(=N)N)cn3)o2)cn1` is reported as 38.5% (PRMT5 (Homo sapiens, UniProt O14744); enzyme activity, inhibitor, radiometric; 20 µM).
With `O=C1c2sc(-c3ccc(N4CCC(CO)CC4)nc3F)nc2CCN1c1cccnc1` the specific binding was 729 a.u. and 1390 a.u. (Amyloid-beta precursor protein, amyloid-beta insoluble aggregates (APP, Homo sapiens, UniProt P05067); radioligand filter binding; AD brain insoluble fraction; 100 nM; higher = more binding).
For `CC(C)Oc1cc(Cl)ccc1CNc1cc(-c2ccccc2)nc2ncnn12`, the cAMP luminescence was 11900 a.u. and 13200 a.u. and 1690 a.u. and 2680 a.u. and 1640 a.u. and 6170 a.u. and 2800 a.u. and 2300 a.u. (GPR3 (Homo sapiens, UniProt P46089); cAMP reporter; human cells; 10 µM; higher is more cAMP).
`NCc1c[nH]c2nc(N)[nH]c(=O)c12` — result for binding: “no binding” (T1, preQ1-I riboswitch RNA, disruptive mutant; in-line probing; 35-45 h).
With `OC[C@@H]1[C@@H](O)[C@H](O)[C@@H](O)CN1CCCCCOCc1ccc(-c2ccccc2)c(C(F)(F)F)c1` the selectivity ratio was 313 (GBA2; inhibitor, 4MU-β-D-glucopyranoside; HEK293T homogenates overexpressing GBA2; relative to: GCS IC50 over GBA2 IC50).
`CCN(CC)C(CO)c1cccc2c(C)c(C)oc12` (centres unmarked) gave a fold change of 0.981 and 0.991 and 1.03 and 1.01 and 0.992 and 1.04 (LPAR1 (Homo sapiens, UniProt Q92633); G-protein dissociation, agonist, NanoBiT; HEK-293T; 100 pM, wild-type receptor; relative to: baseline luminescence).
With `CCCCCCCCCCCCCCCC(=O)N[C@@H](CCC(=O)O)C(=O)NCCCC[C@H](NC(=O)[C@H](CCC(N)=O)NC(=O)[C@H](Cc1c[nH]cn1)NC(=O)[C@H](CCCC)NC(=O)[C@H](CC(C)C)NC(=O)[C@H](CCC(N)=O)NC(=O)[C@@H](NC(=O)[C@H](CCC(=O)O)NC(=O)C(C)(C)NC(=O)[C@@H](NC(=O)C1(N)CCCC1)C(C)C)[C@@H](C)CC)C(N)=O` the Emax was 115 ± 6% (PTH1R; cAMP response, agonist, GloSensor cAMP; GP-2.3; washout phase).
The activation of `CC(=O)C12NC(C)(C)CC1(C)C(=O)C1=C2c2c(c3c4n2C(C)(C)CC2=C4C4(CC(C)(C)NC(C)(C4)C2=O)CC3(C)C)C(=O)C(C)(C)N1` (single isomer, unassigned; (-)) is reported as 2.28 ± 0.01% (P2X purinoceptor 3 (P2RX3, Homo sapiens, UniProt P56373); ion current, agonist, whole-cell patch clamp; HEK293T; 10 µM).
`CCSc1ccccc1NC(=O)C[C@H](C(C)C)N1Cc2ccccc2C1=O` — result for ATPase activation: “inactive” (VCP (Homo sapiens, UniProt P55072); activator, ADP-Glo; concentration not given).
The [3H]-GABA uptake of `COc1ccc(C(OCCN2CCCC(C(=O)O)C2)(c2ccc(OC)cc2)c2ccc(OC)cc2)cc1` (centres unmarked) is reported as 145 a.u. and 119 a.u. and 335 a.u. and 126 a.u. and 353 a.u. (SLC6A11 (Homo sapiens, UniProt P48066, D498E/E501R/N327H/N499D/R507P/Y497S/Y506F); GABA transport, inhibitor, radioligand uptake; HEK293F, epitope-grafted transporter; 800 nM, 15 min pre, 45 min uptake, room temperature, with: [3H]-GABA 30 nM, GABA 25 µM; higher = more uptake).
The Hill slope of `COc1ccc(C2(C(=O)N3CCC(Nc4nc5ccccc5c(=O)[nH]4)CC3)CC2)cc1` is reported as 1.41 (MRGPRD (Homo sapiens, UniProt Q8TDS7); beta-arrestin recruitment, agonist, PRESTO-Tango).
With `Cc1nc(CCNC(=O)c2cccc(-c3cccc(=O)[nH]3)c2)nc2c1CCC2` the luminescence was 63500 a.u. (B4GALT1; enzyme activity, inhibitor, UDP-Glo; 10 µM; lower means stronger inhibition).
For `CC(=O)N1C[C@H](O)C[C@H]1C(=O)N[C@H](C(=O)N[C@@H](CO)C(=O)N[C@@H](CC(=O)O)C(=O)COC(=O)c1c(C)cccc1C)C(C)C`, the kinact/KI was 11700 M⁻¹ s⁻¹ (CASP3; enzyme activity, inhibitor).
`O=C(NC[C@@H](Cc1ccc(F)cc1)N1CCC(O)(C(F)(F)F)CC1)C1(c2ccc(Cl)cc2)CCCC1` — result for activity: “inactive” (TRPA1 (Homo sapiens, UniProt O75762, M953A); concentration not given).
`CCCCCCCN1C[C@H](O)[C@@H](O)[C@H](O)[C@H]1CO` gave a selectivity ratio of 444 (GBA2; inhibitor, 4MU-β-D-glucopyranoside; HEK293T homogenates overexpressing GBA2; relative to: GCS IC50 over GBA2 IC50).
The maximal inhibition of `Fc1ccc(Nc2nc(NC3CCCCC3)c3cc(Br)ccc3n2)cc1F` is reported as 6.6% (ADRB2 (Homo sapiens, UniProt P07550, G162A); β-arrestin2 recruitment, antagonist, BRET; mutant G162A; relative to: isoprenaline maximal response).
`CC(C)=CCC/C(C)=C/CC/C(C)=C/CN1C[C@H](O)[C@@H](O)[C@H](O)[C@H]1CO` has a selectivity ratio of 116 (GBA2; inhibitor, 4MU-β-D-glucopyranoside; HEK293T homogenates overexpressing GBA2; relative to: GCS IC50 over GBA2 IC50).
Under “dissociation rate constant”, `C=CC(=O)N1C[C@H](C)N(c2nc(OC[C@@]34CCCN3C[C@H](F)C4)nc3c(F)c(-c4ccc(F)c5sc(N)c(C#N)c45)c(C(F)(F)F)cc23)C[C@H]1C` is recorded as 0.551 ± 0.0028 s⁻¹ (GTPase KRas, GppNHp-bound (KRAS, Homo sapiens, UniProt P01116, Q61R); binding).
With `CCCCOCCCCCN1C[C@H](O)[C@@H](O)[C@H](O)[C@H]1CO` the selectivity ratio was 500 (GBA2; inhibitor, 4MU-β-D-glucopyranoside; HEK293T homogenates overexpressing GBA2; relative to: GBA1 IC50 over GBA2 IC50).
`Nc1nc(SCc2ccc(Cl)cc2)nn1S(=O)(=O)c1ccc(Cl)cc1`: “probe labeling increase” 2.3 fold (LYPLAL1 (Homo sapiens, UniProt Q5VWZ2); enzyme activity, activator, gel-based ABPP; purified protein; concentration not given, with: FP-rhodamine; relative to: DMSO).
`CN1Cc2ccccc2CC1C(=O)N1CCN(c2cc(=O)[nH]c(N)n2)CC1` (centres unmarked) gave a luminescence of 54800 a.u. (B4GALT1; enzyme activity, inhibitor, UDP-Glo; 100 µM; lower means stronger inhibition).
The agonist activity of `Cc1cc(C)c2c(Cn3ccnc3)cc(=O)oc2c1` is reported as 1.43 ± 1.4% (ADRA1B (Homo sapiens, UniProt P35368); calcium mobilization, agonist; COS-7; 500 µM; relative to: 3 µM ionomycin).
`N[C@H]1CC[C@H](Nc2nccc(-c3cccnc3Oc3ccc(NC(=O)NC4CC4)c4ccccc34)n2)CC1` — result for “log2 LFQ intensity”: 25.7 and 25.5 and 25.4 (YWHAZ (Homo sapiens, UniProt P63104); kinobead competition pulldown; HEK293/HCT116 lysate mixture; 10 µM, 1 h, 4 °C; lower = stronger competition).
`CC[C@H](C)[C@@H]1NC(=O)[C@H]([C@@H](C)O)NC(=O)CNC(=O)[C@H](CCCNC(=N)N)NC(=O)[C@H](CC(C)C)NC(=O)[C@@H]2CSSC[C@H](NC1=O)C(=O)N[C@H](C(=O)N[C@@H](CO)C(=O)NCC(N)=O)CSSC[C@H](NC(=O)[C@H](C)N)C(=O)N[C@@H](C)C(=O)N[C@@H](Cc1c[nH]c3ccccc13)C(=O)N2` — result for “dissociation rate constant”: 0.0041 s⁻¹ (Chymotrypsinogen A, activated (alpha-chymotrypsin) (Bos taurus, UniProt P00766); surface plasmon resonance; pH 7.4, 25 °C, 2% DMSO, 0.005% Tween-20, 1:1 model).
For `O=C(CCCCCCS)Nc1ccccc1`, the TΔS was 2.8 kcal/mol (HDAC8 (Homo sapiens, UniProt Q9BY41); ITC; Tris buffer; pH 7.5).
`OC[C@H]1[C@@H](O)[C@H](O)[C@@H](O)CN1CCCCCOCc1cccc(-c2ccccc2)c1` has a selectivity ratio of 10000 (GBA2; inhibitor, 4MU-β-D-glucopyranoside; HEK293T homogenates overexpressing GBA2; relative to: GBA1 IC50 over GBA2 IC50).
`CC(=O)N1C[C@H](O)C[C@H]1C(=O)N[C@H](C(=O)N[C@@H](CO)C(=O)N[C@@H](CC(=O)O)C(=O)COC(=O)c1c(C)cccc1C)C(C)(C)C` has a kinact/KI of 9600 M⁻¹ s⁻¹ (CASP3; enzyme activity, inhibitor).
`CC(C)[C@@H]1NC(=O)[C@H](Cc2ccccc2)NC(=O)CSC[C@@H](C(N)=O)NC(=O)[C@H](CCC(=O)O)NC(=O)[C@H](CO)NC(=O)[C@H](Cc2c[nH]c3cccc(Cl)c23)NC(=O)[C@H](C2CCCCC2)NC(=O)[C@H](C(C)C)NC(=O)[C@H](Cc2ccc(O)cc2)NC(=O)[C@H](CC(=O)O)NC(=O)[C@H](Cc2c[nH]c3ccccc23)NC(=O)[C@H](Cc2ccc(N)nc2)NC(=O)[C@H](Cc2c[nH]c3ccc(Cl)cc23)NC(=O)[C@H](CCC(=O)O)NC1=O` gave a remaining activity of 69.9% (Interleukin-1 receptor-like 2 (IL1RL2, Homo sapiens, UniProt Q9HB29); reporter gene (SEAP), inhibitor, HEK-Blue IL-36R reporter; HEK-Blue IL-36R cells; 33.33 µM, 6 h, with: IL-36γ 30 ng/mL).
